Assay results pooled from the literature.
Compare with care: the assays were run in different laboratories. ± marks the error that the study gave.
Technique: steady-state kinetics
B1: enzyme (Thermobifida fusca, UniProt Q47RK4); chain MTDVYILDAVRTPFGRYGGALSGIRPDDLAAHVLRALAERSPGLDPAAVDDVFFGDANGAGEDNRNVARMAALLAGWPTSVPGVTLNRLCGSGMESVIAANRAIAVGDASLAVAGGVESMSRAPWVLPKPAQGFPTGHETLYSTTLGWRMVNPAMPEQWTVSLGESTEQVAATYGISRAEQDAFALRSHERAARAWAEGVFDAEITQIPGAELERDESIRETSAEKLAALKPAFRPDGTITAGNASPLNDGAAALLIGDAAAAERVGREPLARIVSRGVAAVDPDVFGIGPVQAAEIALRRAGIGWDDLSVVELNEAFAAQSLACLKLWPDLDPEIVNPNGGAIAIGHPLGASGARIVGTLAHELHRRGGGWGLAAICIGVGQGLAVVLHR
B2: ybiA (Escherichia coli, UniProt P30176); chain MPVRAQRIQHVMQDTIINFYSTSDDYGDFSNFAAWPIKVDGKTWPTSEHYFQAQKFLDEKYREEIRRVSSPMVAARMGRDRSKPLRKNWESVKEQVMRKALRAKFEQHAELRALLLATAPAKLVEHTENDAYWGDGGHGKGKNRLGYLLMELREQLAIEK
B3: Nudt8 (Mus musculus, UniProt Q9CR24); chain MLPDGLSAEDEQRCRQLLARTTARLRSRPAAAAVLVPLCLVRGVPALLYTLRSSRLVGRHKGEVSFPGGKCDPDDQDVIHTALRETQEELGLEVPKEHVWGVLQPVYDREKATIVPVLANVGPLDLQSLRPNLEEVDEVFEMSLAHLLQTQNQGYTHFCQGGHFSYTLPVFLHGPHRVWGLTAVITELTLKLLAPGFYQPSLAVPELPRG
B4: clpA (Escherichia coli, UniProt P0ABH9); chain MLNQELELSLNMAFARAREHRHEFMTVEHLLLALLSNPSAREALEACSVDLVALRQELEAFIEQTTPVLPASEEERDTQPTLSFQRVLQRAVFHVQSSGRNEVTGANVLVAIFSEQESQAAYLLRKHEVSRLDVVNFISHGTRKDEPTQSSDPGSQPNSEEQAGGEERMENFTTNLNQLARVGGIDPLIGREKELERAIQVLCRRRKNNPLLVGESGVGKTAIAEGLAWRIVQGDVPEVMADCTIYSLDIGSLLAGTKYRGDFEKRFKALLKQLEQDTNSILFIDEIHTIIGAGAASGGQVDAANLIKPLLSSGKIRVIGSTTYQEFSNIFEKDRALARRFQKIDITEPSIEETVQIINGLKPKYEAHHDVRYTAKAVRAAVELAVKYINDRHLPDKAIDVIDEAGARARLMPVSKRKKTVNVADIESVVARIARIPEKSVSQSDRDTLKNLGDRLKMLVFGQDKAIEALTEAIKMARAGLGHEHKPVGSFLFAGPTGVGKTEVTVQLSKALGIELLRFDMSEYMERHTVSRLIGAPPGYVGFDQGGLLTDAVIKHPHAVLLLDEIEKAHPDVFNILLQVMDNGTLTDNNGRKADFRNVVLVMTTNAGVRETERKSIGLIHQDNSTDAMEEIKKIFTPEFRNRLDNIIWFDHLSTDVIHQVVDKFIVELQVQLDQKGVSLEVSQEARNWLAEKGYDRAMGARPMARVIQDNLKKPLANELLFGSLVDGGQVTVALDKEKNELTYGFQSAQKHKAEAAH
B5: protein (Streptomyces glaucescens, UniProt B0B0T9); chain MRGTGVHIITFSFECGGFDNRLMRGGLSPLVWNLSRAYAARGHRVSLVTPAHGHLPALRERFDVRELDYRDEHTVPLVLDPKVWPDQPAGTGLSLDTRAHLLRLDGVDVYLLSDAFLDLLPDRLYPPPAFEGRDLAHAKPLVFQVGGLRFLQRHLGDGPAIVHGFEPYYHYLLPAVLAEDDRFRTVSTVAANAPVTQKVYRPQVERLLELFGVRGPDLDALDGPAPAEDSPMATVARALAGTRMHVEYGPDHVGVFPLVVAGADLVDFVSSGQRDHYVTWQDTPFEALFRSLPVSRRLRERPDRLLAGGCGISDSWLARDPGAVDRAAVRRSLGLTVPGPVFYHAARYAVHHKGQLELMRAVREVLADDPEVGFVIRCATGGGGDAPAVAANAAFQRLADRYPGRLYLDWRLADEDTLFAQAACADFCVFPSKFELDGFLIAQAEAMACGAVPIATAQRVTSHFGHQRPLGDPAATGFSVPGSFRDDDAGLARALAERIREAATVFRTEPDTYARLSRNARRLARSFTWARSADLRLTAYDRLWRGERAQPTAGELVEWGWLEALPPAALAGHRDLIVRAATERGDDLALARALGCGTDELEPDTWERLFASAHDRGDFVRCAELARRAGRPDLQARLANRFRVFGGPDGTWRVRYTHPRADRVELVAEASPAAPGAGPDAAAAAAAEGTPGPLESATETLASDEPAPAPGGAVLRPLAADGRGGFSGTLDGPPVASHAVAMVTLRSGRVVWDAVPTRAPAFRLVATDLDGTLLRSDLTVSARTRRALERVAAAGAHHLVVTGRPAVACRHLLGTLGYRGLAVCGQGAQLYDAGADRLLSSQSLDRDLARDVVAKVEAELGPVELGIVTSPPESRFKVTPAFGERVRHGWDVTADRELLWSAPIDKLILHHPDVDEDRLAAVTRRLTGGEVTVVHSVKGMVEVLPAGTDKGTGVARAARLLGLTGADTVAFGDMPNDIPLLSWAAHGVAVANAHHDLRAMADEIAPGNDEDGVASVLERLFAPVEVRP
B6: protein (Actinidia chinensis, UniProt H9M5U5); chain MATAAGPIATNNSPQNSNAYRTPIAPSVPITHKWSIAEDLTCISNPSKHNNPQTGYRSFSDELYVKYEEKLEDVRKALREVEENPLEGLVMIDALQRLGIDYHFRGEIGAFLQKQQIISSTPDGYPEHGLYEVSTLFRFLRQEGHNVTADVFNNFKDKEGRFRSELSTDIRGLMSLYEASQLRIEGEDILDQAADFSSQLLGRWTKDPNHHEARLVSNTLTHPYHKSLATFMGQKLSYMNCKGPNWDGVDNLQELAKMDLTIVQSIHQKEVFQVSQWWKDTGLANELKLARNQPLKWYMWPMAALTDPRFSEERVELTKPISFIYIIDDIFDVYGTIEELTLFTDAVNRWELSAVEQLPDYMKVCFKALYDVTNEIAYKIYKKHGQNPIDSLQKTWASLCNAFLVEAKWFASGHLPNAEEYLKNGIISSGVHVVLAHMFFLLGDGITQESVDLVDDYPGISTSIATILRLSDDLGSAKDEDQDGYDGSYIECYMKEHKGSSVDSAREEVIRMISEAWKCLNKECLSPNPFSESFRIGSLNMARMIPMMYSYDDNHNLPILEEHMKAMIYNTSL
Chain of UniProt P22304 (whole entry, looked up): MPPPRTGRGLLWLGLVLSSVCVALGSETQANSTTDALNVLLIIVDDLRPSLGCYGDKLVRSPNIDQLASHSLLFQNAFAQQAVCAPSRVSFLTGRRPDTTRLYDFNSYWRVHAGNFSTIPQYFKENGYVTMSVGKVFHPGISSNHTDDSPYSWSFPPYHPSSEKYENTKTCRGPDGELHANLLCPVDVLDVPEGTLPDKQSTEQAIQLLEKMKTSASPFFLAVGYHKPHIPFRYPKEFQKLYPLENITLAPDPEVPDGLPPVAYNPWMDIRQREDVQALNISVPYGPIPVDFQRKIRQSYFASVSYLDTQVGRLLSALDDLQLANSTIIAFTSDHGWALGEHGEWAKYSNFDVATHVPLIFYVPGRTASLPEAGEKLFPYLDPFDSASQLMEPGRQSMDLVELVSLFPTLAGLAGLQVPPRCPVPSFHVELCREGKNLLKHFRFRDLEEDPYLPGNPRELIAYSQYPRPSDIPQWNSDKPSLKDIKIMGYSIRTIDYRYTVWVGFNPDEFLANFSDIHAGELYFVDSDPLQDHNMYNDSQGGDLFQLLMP
Chain of UniProt E1V931 (whole entry, looked up): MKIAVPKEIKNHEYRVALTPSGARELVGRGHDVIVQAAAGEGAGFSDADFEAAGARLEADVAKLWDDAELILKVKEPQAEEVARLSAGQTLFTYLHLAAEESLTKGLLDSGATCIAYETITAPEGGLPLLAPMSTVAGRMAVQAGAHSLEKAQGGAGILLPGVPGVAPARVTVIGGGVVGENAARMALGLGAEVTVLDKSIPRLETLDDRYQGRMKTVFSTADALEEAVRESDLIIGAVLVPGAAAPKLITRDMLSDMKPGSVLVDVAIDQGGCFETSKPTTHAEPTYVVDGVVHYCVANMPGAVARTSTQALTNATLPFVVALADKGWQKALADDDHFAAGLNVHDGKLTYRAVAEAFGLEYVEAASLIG

B1 (enzyme)  kcat (CC(C)(COP(=O)(O)OP(=O)(O)OC[C@H]1O[C@@H](n2cnc3c(N)ncnc32)[C@H](O)[C@@H]1OP(=O)(O)O)[C@@H](O)C(=O)NCCC(=O)NCCSC(=O)CCC(=O)O; pH 7.4, 37 °C): 0.005333 ± 3.67e-05 s⁻¹
B2 (ybiA)  kcat (Nc1nc(N[C@@H]2O[C@H](COP(=O)(O)O)[C@@H](O)[C@H]2O)c(N)c(=O)[nH]1; pH 8, 22 °C, substrate not purified): 0.006 ± 0.0002 s⁻¹
B3 (Nudt8)  kcat (CCCCCC(=O)SCCNC(=O)CCNC(=O)[C@H](O)C(C)(C)COP(=O)(O)OP(=O)(O)OC[C@H]1O[C@@H](n2cnc3c(N)ncnc32)[C@H](O)[C@@H]1OP(=O)(O)O; pH 8.5, with: 2 mM Mn2+): 2.48 ± 0.183 s⁻¹
IDS (Homo sapiens, UniProt P22304)  kcat (Cc1cc(=O)oc2cc(O[C@@H]3O[C@@H](C(=O)O)[C@@H](O)[C@H](O)[C@H]3OS(=O)(=O)O)ccc12; pH 5.5): 112 ± 14.7 s⁻¹
enzyme (Halomonas elongata, UniProt E1V931)  kcat (NC(=O)c1ccc[n+]([C@@H]2O[C@H](COP(=O)(O)OP(=O)(O)OC[C@H]3O[C@@H](n4cnc5c(N)ncnc54)[C@H](O)[C@@H]3O)[C@@H](O)[C@H]2O)c1; pH 10, 25 °C, cofactor varied): 1.7 s⁻¹
CYP2C9 (Homo sapiens, UniProt P11712)  kcat (Cc1ccc(Cl)c(Nc2ccccc2C(=O)O)c1Cl; pH 7.4, Hill model, CYP2C9, metabolite, not purified): 0.000213 s⁻¹
B4 (clpA)  kcat (Nc1ncnc2c1ncn2[C@@H]1O[C@H](CO[P@](=O)(O)O[P@](=O)(O)O[P@@](=O)(O)S)[C@@H](O)[C@H]1O; pH 7.5, 25 °C, NaCl 300 mM, no ClpP, no polypeptide, with: MgCl2 10 mM): 0.000833 ± 6.67e-05 s⁻¹
B5 (protein)  kcat (Cc1cn([C@H]2C[C@H](O)[C@@H](COP(=O)(O)OP(=O)(O)O[C@H]3O[C@H](C)[C@@H](N)[C@H](O)[C@H]3O)O2)c(=O)[nH]c1=O; pH 7.5, 30 °C, apparent, with: maltose 1 mM): 0.0178 ± 0.00467 s⁻¹
B6 (protein)  kcat (CC(C)=CCC/C(C)=C/COP(=O)(O)OP(=O)(O)O; pH 7.5, room temperature, labelled compound, with: MgCl2 20 mM): 0.13 ± 0.002 s⁻¹
PGDH1 (Oryza sativa, UniProt B7F6I8)  kcat (O=C(O)[C@H](O)COP(=O)(O)O; pH 9, 25 °C, NaCl 0.1 M, apparent, with: NAD+): 16.5 ± 0.2 s⁻¹
